Published values of several laboratories.
Each numbered part is a random draw from the data of one study; scales do not carry over between parts.

Set 1
Target: Centromere-binding protein 1, full length, N-terminal tag (CBF1, Saccharomyces cerevisiae, UniProt P17106, residues 1-351)
UniProt P17106, sequence (whole entry, looked up): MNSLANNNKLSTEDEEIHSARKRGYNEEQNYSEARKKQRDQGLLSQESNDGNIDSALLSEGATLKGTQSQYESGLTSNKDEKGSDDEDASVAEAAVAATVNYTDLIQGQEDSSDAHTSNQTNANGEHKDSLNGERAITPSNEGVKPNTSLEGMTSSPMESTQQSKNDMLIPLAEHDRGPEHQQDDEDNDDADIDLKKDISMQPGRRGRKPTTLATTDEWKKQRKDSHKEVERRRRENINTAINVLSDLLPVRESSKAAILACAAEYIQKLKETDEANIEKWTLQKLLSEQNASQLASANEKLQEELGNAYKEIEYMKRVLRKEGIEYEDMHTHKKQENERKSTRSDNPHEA
Method: protein-binding microarray
Form: double-stranded DNA, one strand shown
Medium: in vitro
Tested at: 0.8 µM
Notes: whole 60-bp probe, no competitor
Direction: higher = stronger binding
Shared flanks, not repeated: … GTCTTGATTCGCTTGACGCTGCTG
Oligonucleotide	fluorescence intensity [a.u.]
CTAATGTACACATTTCTGCTGATGTGTTTTTTTTTC	503
GAATTTCAAATCGATGACAGCTGATAGAAAGCGTAG	628
CCTAACTACTATAACCTCGGTCAATAGCTTCGTACA	478
CTAAATAGGCTTTCTCTCGTGCTCGACCCCTAATTC	535
GAAGAATCTTCTCGTCACGGAAGACCGTGCATTTAG	535
GAATTGAATATTCATGTCACGACCCACTGCCTGTAG	1190
GAACTCTTTATTCATCTGACCTAGTATTTATTCTAG	714

Set 2
Target: Prothrombin, mature alpha-thrombin (F2, Homo sapiens, UniProt P00734)
Method: aptamer microarray, sandwich
Form: DNA with 2'F-ANA
Medium: in vitro
Tested at: 200 nM
Notes: whole 15-mer aptamer, many near background
Together with: Cy3 exosite-II aptamer, 400 nM
Direction: higher = stronger binding
Oligonucleotide	mean fluorescence intensity [a.u.]
GGTTGGTGTGGTTGG (2'F-ANA at 1 3 5 6 7 8 9 12 14)	52.9
GGTTGGTGTGGTTGG (2'F-ANA at 1 3 7 9 11 14)	84.5
GGTTGGTGTGGTTGG (2'F-ANA at 3 4 5 7 9 10 11 13 14)	48.5
GGTTGGTGTGGTTGG (2'F-ANA at 1 2 3 5 6 7 9 11 12 13 14 15)	49.8

Set 3
Target: Histone acetyltransferase KAT6A, both winged helices, GST fusion (KAT6A, Homo sapiens, UniProt Q92794, residues 1-181)
Method: protein binding microarray
Form: double-stranded DNA, one strand shown
Medium: in vitro
Tested at: not given
Notes: 8-mer, flanks averaged, mean of 2 arrays, mostly near background
Relative to: not given
Direction: higher = stronger binding
Target sequence (chain): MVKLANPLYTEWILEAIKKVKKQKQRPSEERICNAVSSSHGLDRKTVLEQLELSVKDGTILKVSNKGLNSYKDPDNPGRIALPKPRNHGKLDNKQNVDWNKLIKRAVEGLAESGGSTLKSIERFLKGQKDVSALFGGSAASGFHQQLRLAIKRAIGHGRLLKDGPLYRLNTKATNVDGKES
Oligonucleotide	E-score
GCATATAC	0.0582
GCAATAGC	-0.0478
AAGAAGAG	-0.124
ACGATTAG	-0.079
CTTCTAAC	-0.159
AAGTAGTG	-0.132

Mixed results
Molecule	target	test	test system	conditions	scale	endpoint	result
PhoQ, residues 284 288 289 292 302 303 SLGVVW	PhoP, residues 12 14 15 18 19 NQAHL (Escherichia coli, UniProt P23836)	Sort-seq, refers to: YFP reporter	E. coli	PhoQ-PhoP variant library, together with: 10 µM Mg2+	relative to: high Mg2+ state, higher = stronger signaling	fold induction	13.9

Some of these lines once more (set 3):
Oligonucleotide	E-score
CTTCTAAC	-0.159
AAGTAGTG	-0.132
